Assay results gathered from unrelated publications.
Protocols differ between the studies behind these lines. Values joined by “and” are separate records of one study, mostly repeats; a detail may differ. ± gives the spread as reported.
Cell line: Huh7.5

`CC(=O)OC[C@H]1O[C@@H](Sc2sc(C(=O)c3ccc(Cl)cc3)c(N)c2-c2nc3ccccc3s2)[C@H](OC(C)=O)[C@@H](OC(C)=O)[C@H]1OC(C)=O`: “maximum non-toxic concentration” 90 µg/mL (cytotoxicity; 72 h).
Under cytotoxicity, `Cc1ccc2nc(-c3ccc4nc(-c5ccc6nc(-c7ccc8nc(-c9ccc(N)cc9)sc8c7)sc6c5)sc4c3)sc2c1S(=O)(=O)O` is recorded as “not toxic” (100 µM).
For `O=C(Nc1cccc(C(=O)Nc2ccc(S(=O)(=O)O)c3cc(S(=O)(=O)O)cc(S(=O)(=O)O)c23)c1)Nc1cccc(C(=O)Nc2ccc(S(=O)(=O)O)c3cc(S(=O)(=O)O)cc(S(=O)(=O)O)c23)c1`, the CC50 was > 25 µM (cell growth or viability, ATP luminescence; 72 h).
`CCOC(=O)c1cc(-c2nc3ccccc3s2)c(=O)n(NS(=O)(=O)c2ccc(Cl)cc2)c1N` — result for “maximum non-toxic concentration”: 130 µg/mL (trypan blue; 72 h).
`Cc1ccc2nc(-c3ccc4nc(-c5ccc(NC(=O)c6ccc7ccccc7c6)cc5)sc4c3)sc2c1S(=O)(=O)O` has a viability of 87 ± 4% (10 µM).
`Nc1c(C(=O)c2ccc(Cl)cc2)sc(S)c1-c1nc2ccccc2s1`: “maximum non-toxic concentration” 80 µg/mL and 70 µg/mL (cytotoxicity; 72 h).
`O=c1c(-c2nc3ccccc3s2)cc2c(n1NS(=O)(=O)c1ccccc1)CCCCCC2` — result for “maximum non-toxic concentration”: 140 µg/mL (trypan blue; 72 h).
`CC(=O)O[C@@H]1[C@@H](OC(C)=O)[C@H](Sc2sc(C(=O)c3ccc(Cl)cc3)c(N)c2-c2nc3ccccc3s2)OC[C@H]1OC(C)=O`: “maximum non-toxic concentration” 80 µg/mL (cytotoxicity; 72 h).
`Cc1ccc(S(=O)(=O)Nn2c3c(cc(-c4nc5ccccc5s4)c2=O)CCCCCC3)cc1`: “maximum non-toxic concentration” 130 µg/mL (trypan blue; 72 h).
For `N#C/C(=C\c1ccc(O)c(O)c1)C(=O)c1ccc(O)c(O)c1`, the CC50 was 60 µM (cell growth or viability, ATP luminescence; 72 h).

A few entries again:
`Cc1ccc(S(=O)(=O)Nn2c3c(cc(-c4nc5ccccc5s4)c2=O)CCCCCC3)cc1`: “maximum non-toxic concentration” 130 µg/mL (trypan blue; 72 h).
